# Measurements collected from several papers.
# Each numbered part is a random draw from the data of one study; scales do not carry over between parts. Changes are numbered by the printed parent chain.

# Sample 1
# Target: CCND2, cyclin fold, Cln2 fusion (human)
# Technique: yeast growth competition, sequencing
# Medium: yeast
# Notes: weak parent motif
# Reference: not given
# Reading: higher = stronger binding
# Parent: ORC1 docking peptide (human); PRARKRLELGNLG; partner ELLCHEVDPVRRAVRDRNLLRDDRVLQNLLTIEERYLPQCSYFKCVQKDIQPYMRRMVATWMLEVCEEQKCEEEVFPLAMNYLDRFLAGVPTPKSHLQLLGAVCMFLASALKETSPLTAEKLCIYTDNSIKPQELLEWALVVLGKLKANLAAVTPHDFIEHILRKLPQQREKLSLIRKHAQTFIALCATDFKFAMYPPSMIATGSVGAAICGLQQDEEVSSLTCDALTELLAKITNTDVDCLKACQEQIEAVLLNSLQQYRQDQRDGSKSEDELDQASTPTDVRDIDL
Substitution,normalised enrichment score
PRWRKRLELGNLG [A3W],-0.105
PRARKWLELGNLG [R6W],-0.262
PRQRKRLELGNLG [A3Q],0.377
PRAQKRLELGNLG [R4Q],-0.0432
PRARKRLELGNLT [G13T],-0.118
PRARKRSELGNLG [L7S],0.173
PRARKRLELGTLG [N11T],-0.045
PRARKILELGNLG [R6I],0.691
PRVRKRLELGNLG [A3V],0.0586
PRARKRLHLGNLG [E8H],-0.247
PRARKRLELGNAG [L12A],0.0384
PRARSRLELGNLG [K5S],0.278
PRARKQLELGNLG [R6Q],0.123
PRARKRLILGNLG [E8I],0.107

# Sample 2
# Target: Fragile X messenger ribonucleoprotein 1, C-terminal low-complexity region (Fmr1, Mus musculus, UniProt P35922)
# Technique: RNA Bind-n-Seq
# Molecule type: RNA
# Medium: in vitro
# Tested at: 200 nM
# Notes: whole 134-nt RNA, ends assumed
# With: 150 mM LiCl
# Reference: input library
# Reading: higher = stronger binding
# Library: 7-deaza-guanosine replaces G
Sequence,log2 enrichment
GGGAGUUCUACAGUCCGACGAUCCUCAAGUCCUGUGCUACACAUCGUAUGUACCGAAUCGGGGCCGGCCGGCCGGGAAAGUAUUAUGUUACGCCGUUCGGAUCUGCACUUCCAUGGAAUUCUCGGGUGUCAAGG,1.08
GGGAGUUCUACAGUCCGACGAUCCCUGUGCUACACAUCGUAUGUACCGAAUCGGGGAAAAAAAGGGGUGGGGAAAAAAAGGGGAAAGUAUUAUGUUACGCCGUUCGGAUCUGCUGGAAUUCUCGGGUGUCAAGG,-1.4
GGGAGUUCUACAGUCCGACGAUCAAGUCCUGUGCUACACAUCGUAUGUACCGAAUCGGGUUUUGGGUUUUGGGGUUUUGGAAAGUAUUAUGUUACGCCGUUCGGAUCUGCACUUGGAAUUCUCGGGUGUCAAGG,-0.936
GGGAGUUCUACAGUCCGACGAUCUGGGAGGUGGAUUUUGUUUAUUUUUUUAGCUCAUUUCCAGGGGUGGGAAUUUUUUUUUAAUAUGGGUCAUGAAUAAAGUUGUUUUUGAAAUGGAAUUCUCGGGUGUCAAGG,0.622
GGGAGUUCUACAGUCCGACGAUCUGGCCCUGGUGGCAUGCGGGGAGGAAGAGGUGGCCUCAUGGAUGGUGGUGGUCCCGGUGGAAUGUUCAGAGGUGGCCGUGGUGGAGACAGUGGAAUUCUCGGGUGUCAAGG,0.362
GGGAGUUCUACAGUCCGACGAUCCACAGACAACACGCACCCACACAGACACAGAGGGAAGGGGUUGGGAUGGGGACAGGGUGCACAGCAGGGCGGGGUAGGACCCCAGCCCCUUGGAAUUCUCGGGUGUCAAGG,0.02

# Sample 3
# Target: ABI1, truncated, D143A, DHFR fusion (Arabidopsis thaliana)
# Technique: DHFR PCA, deep sequencing
# Medium: yeast
# Notes: methotrexate growth selection, single substitutions
# With: (+)-ABA 0.032 µM
# Reference: wild-type fitted maximum
# Reading: higher = stronger binding
# Parent: PYL1, truncated, DHFR fusion (Arabidopsis thaliana); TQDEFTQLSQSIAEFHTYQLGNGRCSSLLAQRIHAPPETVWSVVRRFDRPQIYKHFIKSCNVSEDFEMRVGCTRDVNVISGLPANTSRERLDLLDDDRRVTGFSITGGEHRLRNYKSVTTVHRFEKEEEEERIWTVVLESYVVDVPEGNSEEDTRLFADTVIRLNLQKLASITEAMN
Substitution,relative binding score [%]
T101Q,-3.02
T135I,-4.65
R88A,1.4
T160M,2.56
D97Q,46.5
E151Y,9.32
E38L,0.521
V62H,0.249
E67L,0.34
V100M,6.16
S150L,3.62
G81M,1.3
Q51W,1.79

# Sample 4
# Target: Interferon regulatory factor 5, full length, phosphomimetic (IRF5, Homo sapiens, UniProt Q13568-2, residues 1-514, S451D/S453D/S456D/S462D)
# Technique: protein-binding microarray
# Molecule type: double-stranded DNA, one strand shown
# Medium: in vitro
# Tested at: 940 nM top
# Notes: 60-bp whole probe
# With: salmon DNA 0.4 mg/ml
# Reference: random background probes
# Reading: higher = stronger binding
# All sequences stand within: GCCTAGCAC … GTCTTGATTCGCTTGACGCTGCTG
Sequence,fitted relative affinity [z-score]
TTCGGACTGCTTTTCCTTTAGTGCTAG,-0.221
GACGGACTGGGCCTCGGGACGTGCTAG,-0.723
TCATTTCTACTTCTCTTACTGTGCTAG,1.97
TCACTTAGGTTTTCTGGTACTGTGCTA,0.369
TTAGATTTCGGGTAACGATTAGTGCTA,1.29
TTTGGTTTCGACTATCGGTTAGTGCTA,12.2
CTTGCTTCCCAATTCTCTTTGTGCTAG,1.38
TTCGAACTGGGGACTGGATTAGTGCTA,-0.047
GACGATTTCAGTCTCGAGACGTGCTAG,1.87
TCAACTTTCTATGTCTGACTGTGCTAG,1.11
GACGGACTGGACAGTGGGGACGTGCTA,0.00196
TCAATGTTCCTTATTTAACTGTGCTAG,0.6
GACTGTTTCCTTTCCCTGACGTGCTAG,1.72
GACGAATTCAGTTCCGAGACGTGCTAG,0.225
TTAGGACTGGGGAATCGGTTAGTGCTA,-0.225

# Sample 5
# Target: Sal-like protein 4, full length isoform A (SALL4, Homo sapiens, UniProt Q9UJQ4, residues 1-1053)
# UniProt Q9UJQ4, sequence (whole entry, looked up): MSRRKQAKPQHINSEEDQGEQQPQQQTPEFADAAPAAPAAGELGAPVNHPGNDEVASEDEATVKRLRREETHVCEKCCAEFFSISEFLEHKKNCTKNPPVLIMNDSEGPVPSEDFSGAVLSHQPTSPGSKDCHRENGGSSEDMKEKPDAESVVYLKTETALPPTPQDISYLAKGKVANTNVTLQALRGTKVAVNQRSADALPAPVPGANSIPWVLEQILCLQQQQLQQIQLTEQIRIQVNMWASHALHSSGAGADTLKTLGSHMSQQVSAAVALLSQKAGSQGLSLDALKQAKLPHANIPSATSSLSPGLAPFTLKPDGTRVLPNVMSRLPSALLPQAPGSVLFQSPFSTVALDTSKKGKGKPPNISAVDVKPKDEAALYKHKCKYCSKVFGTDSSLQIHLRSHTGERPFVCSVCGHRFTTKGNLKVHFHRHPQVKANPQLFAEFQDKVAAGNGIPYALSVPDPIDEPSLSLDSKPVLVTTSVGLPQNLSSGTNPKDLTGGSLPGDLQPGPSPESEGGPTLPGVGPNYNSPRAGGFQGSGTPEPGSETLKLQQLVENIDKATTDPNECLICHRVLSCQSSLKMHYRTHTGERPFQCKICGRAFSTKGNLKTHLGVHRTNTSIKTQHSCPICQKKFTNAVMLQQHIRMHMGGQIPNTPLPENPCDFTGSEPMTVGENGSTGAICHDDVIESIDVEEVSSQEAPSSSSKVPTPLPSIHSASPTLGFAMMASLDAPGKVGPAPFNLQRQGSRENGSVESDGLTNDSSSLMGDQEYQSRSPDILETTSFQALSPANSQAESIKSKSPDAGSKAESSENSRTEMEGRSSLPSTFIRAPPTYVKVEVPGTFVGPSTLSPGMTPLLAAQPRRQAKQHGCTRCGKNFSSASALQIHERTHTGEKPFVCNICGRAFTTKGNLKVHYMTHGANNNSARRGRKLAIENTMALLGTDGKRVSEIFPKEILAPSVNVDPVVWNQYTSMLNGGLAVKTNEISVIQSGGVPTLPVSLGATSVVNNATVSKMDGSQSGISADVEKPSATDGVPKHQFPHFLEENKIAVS
# Technique: universal PBM
# Molecule type: double-stranded DNA, one strand shown
# Medium: in vitro
# Tested at: 600 nM
# Notes: 8-mer, flanks averaged, mean of replicates
# Reading: higher = stronger binding
Sequence,E-score
ATCGAATC,0.0486
ACGACAGA,-0.0627
CGTATTAA,0.169
CCGAACTC,-0.188
GCTCCGGA,-0.228
CTCACCCA,-0.13
AAGCTGAA,-0.0264
AGACTCCG,-0.119
AGATACCC,0.0491
CTACTCAG,-0.133
ACACTCGT,0.00622
GGGTAACA,-0.0852
GTAGGTGA,-0.067
AACCTCCT,-0.0362
TCGCGCAA,0.0931
AGTCTGCC,-0.165
CGCCAATA,0.145

# Sample 6
# Target: RNA binding protein fox-1 homolog 2, RRM domain, GST-SBP tag (RBFOX2, Homo sapiens, UniProt O43251-10, residues 100-194)
# Technique: RNA Bind-n-Seq
# Molecule type: RNA
# Medium: in vitro
# Tested at: 365 nM
# Notes: natural RNA segment, single round, ends assumed
# Reference: no-protein control
# Reading: higher = stronger binding
# Target sequence (chain): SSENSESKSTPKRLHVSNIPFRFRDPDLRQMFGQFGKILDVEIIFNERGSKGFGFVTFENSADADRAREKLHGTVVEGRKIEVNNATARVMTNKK
Sequence,RBNS enrichment (R)
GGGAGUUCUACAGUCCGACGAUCGCUGGUCACCGCAUAUCCUUGCCUUCCUUUGGAAUUCUCUUAAGGGAAAGGAAUUUUGCACUUAGCCAUGGUCGGGUUGGAAGCAAAGCCUUGGGCUUUUCCUGUCCCUAUGGAAUUCUCGGGUGCCAA,0.227
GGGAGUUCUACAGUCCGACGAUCCAGAUGUCCCAUUGCUCCCUGGAGCCUGUCAUGCCUGUUGGGGAUCAGGCAGCCUCCUGAUGCCAGAACACCUCAGGCAGAGCCCUACUCAGCUGUACCUGUCUGCCUGGUGGAAUUCUCGGGUGCCAA,0.474
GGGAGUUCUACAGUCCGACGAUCAUGAAGAGUGGGAAGGCGGCCUAGGCUCCAUGGGCCACUAUGAGAAAUAGCCUCUCUUUCCUGGGAACCCUCUGUGGUCCUCUCUAAAAGACCCAGAUAUACUGUUAUGGUGGAAUUCUCGGGUGCCAA,0.252
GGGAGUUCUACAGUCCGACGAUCAGCUGAUAAAUAAGGGCUGAGGCAAGUGACUCCUUAGAUCAGCACUGACUGAACGAAAGCCAGGCAGCUGUUCUGUAAGCCUAGCCCUACCCUUCAUUUCAGUUUUAUACUGGAAUUCUCGGGUGCCAA,0.229
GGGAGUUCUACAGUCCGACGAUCGGUUGCUGUAGCAACAAGAGUGUUUGGUAGCUGACCAAGGUGUCAGGAUCCCUGACCCUAGCGAUACUUAACAGUUCUUCCCAUGUCCUAUGGUAUCUGUGCUUUUGGCUUGGAAUUCUCGGGUGCCAA,0.287
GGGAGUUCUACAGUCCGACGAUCUUUUAAAUGCACUAGGAGCCAACUCUGUCCAUCUGUGAUGGGAUUAGAAAGCCCGGUGUUUUUCUGUGAUAUUAGAUGUCCUCCGAGCACAGCCCACUUGGAUUUGUUUGUGGAAUUCUCGGGUGCCAA,0.549
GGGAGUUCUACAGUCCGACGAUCGAAAAAAAACAAAAGUCUUUGUAAUUUUGCUUAAAUUUGCCAGACACAGAUUUAGAAAUACAUUCUCACUGUCCAAAAUCAGCUUAAACACUGGCUCUGGCGAUGAGUCAUGGAAUUCUCGGGUGCCAA,0.463
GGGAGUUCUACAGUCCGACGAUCGCCCACAGCCUUCCGUGUGGGAUCUGCCAGGACAAGCUGGCUAGACCUCUGAGAAGUUGGAGAAGUCAGGAAAUUGUACUCUCCACACCGUCCUGGUUUAGUGGAUGGGGUGGAAUUCUCGGGUGCCAA,0.421
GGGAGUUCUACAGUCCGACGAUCAAUUAACUACAUUAGAAACUGACAUCCUUAUACUGGUCUCCCAAGUACAAAAGUAGGAAGAAGCCGUUAGGAGCUGGCUAGAGAGACUCUCGAGUGUGCUGGUGUGCUGUUGGAAUUCUCGGGUGCCAA,0.817
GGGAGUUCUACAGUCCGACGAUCUGAGUAUAUAGAAAGAAAAGUUACAGUACUCUGUGGGAAAAUCUCAGCUGACAUCAUGAAUAGAAUGAGGUCUGCUUCAGAACCUUUUGUUGUCAACUGUCACUGUUUCUUGGAAUUCUCGGGUGCCAA,0.346
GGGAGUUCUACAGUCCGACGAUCAGAAAGUCAGGAACUAGAGACCAGAGUCUGCAGGAACUUUGCCACUGCCCUUCACUGGCUAAUCCUGUACUUCUCUCUGUGUUCCUUGAGUGACAGGUGGUAAAACCCUUUGGAAUUCUCGGGUGCCAA,0.211
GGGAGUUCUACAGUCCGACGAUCAACCACGCGGGGGCCUUGAGGGACGCUUUGUCUGUCGUGAUGGGGCAAGGGCACAAGUCCUGGAUGUUGUGUGUAUCGAGAGGCCAAAGGCUGGUGGCAAGUGCACGGGGUGGAAUUCUCGGGUGCCAA,1.59

# Sample 7
# Target: Histone acetyltransferase KAT6A, winged helix 1, GST fusion (KAT6A, Homo sapiens, UniProt Q92794, residues 1-85)
# Technique: protein binding microarray
# Molecule type: double-stranded DNA, one strand shown
# Medium: in vitro
# Tested at: not given
# Notes: 8-mer, flanks averaged, mean of 2 arrays, mostly near background
# Reference: not given
# Reading: higher = stronger binding
# Target sequence (chain): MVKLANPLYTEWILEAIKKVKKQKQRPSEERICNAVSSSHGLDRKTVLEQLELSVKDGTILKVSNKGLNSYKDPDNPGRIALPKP
Sequence,E-score
ACGTACCG,0.103
AACCCCCG,0.266
TGCTCACA,-0.218
CCGGACGC,0.314
CACATAAA,-0.0122
CCATCGAA,-0.18
GGAGAGCA,-0.159
ACCGTAAC,0.233
GTGGTTGA,-0.117
GCTCGGTA,0.18
AAGACACG,0.0531
AGCATCCT,0.0254
GCATGAGA,-0.143
GCAGGATA,-0.24
TCGCACAA,-0.0596
ATTCGACG,-0.00767
ATTCTCCG,0.141
ACCGATCC,0.0644
ACTTCGCA,-0.0714
GACGTCCC,0.0296
CGAACGCA,0.135
CCAGTCGG,0.0227
ATATATGG,-0.0825

# Excerpt of the above (sample 4):
Sequence,fitted relative affinity [z-score]
TTCGGACTGCTTTTCCTTTAGTGCTAG,-0.221
GACGGACTGGGCCTCGGGACGTGCTAG,-0.723
TCATTTCTACTTCTCTTACTGTGCTAG,1.97
TCACTTAGGTTTTCTGGTACTGTGCTA,0.369
TTAGATTTCGGGTAACGATTAGTGCTA,1.29
TTTGGTTTCGACTATCGGTTAGTGCTA,12.2
CTTGCTTCCCAATTCTCTTTGTGCTAG,1.38
TTCGAACTGGGGACTGGATTAGTGCTA,-0.047
GACGATTTCAGTCTCGAGACGTGCTAG,1.87
TCAACTTTCTATGTCTGACTGTGCTAG,1.11
GACGGACTGGACAGTGGGGACGTGCTA,0.00196
TCAATGTTCCTTATTTAACTGTGCTAG,0.6
GACTGTTTCCTTTCCCTGACGTGCTAG,1.72
GACGAATTCAGTTCCGAGACGTGCTAG,0.225
